# Published values from different studies.
# Each numbered part is a random draw from the data of one study; scales do not carry over between parts.
# Chain of UniProt P22607 (whole entry, looked up): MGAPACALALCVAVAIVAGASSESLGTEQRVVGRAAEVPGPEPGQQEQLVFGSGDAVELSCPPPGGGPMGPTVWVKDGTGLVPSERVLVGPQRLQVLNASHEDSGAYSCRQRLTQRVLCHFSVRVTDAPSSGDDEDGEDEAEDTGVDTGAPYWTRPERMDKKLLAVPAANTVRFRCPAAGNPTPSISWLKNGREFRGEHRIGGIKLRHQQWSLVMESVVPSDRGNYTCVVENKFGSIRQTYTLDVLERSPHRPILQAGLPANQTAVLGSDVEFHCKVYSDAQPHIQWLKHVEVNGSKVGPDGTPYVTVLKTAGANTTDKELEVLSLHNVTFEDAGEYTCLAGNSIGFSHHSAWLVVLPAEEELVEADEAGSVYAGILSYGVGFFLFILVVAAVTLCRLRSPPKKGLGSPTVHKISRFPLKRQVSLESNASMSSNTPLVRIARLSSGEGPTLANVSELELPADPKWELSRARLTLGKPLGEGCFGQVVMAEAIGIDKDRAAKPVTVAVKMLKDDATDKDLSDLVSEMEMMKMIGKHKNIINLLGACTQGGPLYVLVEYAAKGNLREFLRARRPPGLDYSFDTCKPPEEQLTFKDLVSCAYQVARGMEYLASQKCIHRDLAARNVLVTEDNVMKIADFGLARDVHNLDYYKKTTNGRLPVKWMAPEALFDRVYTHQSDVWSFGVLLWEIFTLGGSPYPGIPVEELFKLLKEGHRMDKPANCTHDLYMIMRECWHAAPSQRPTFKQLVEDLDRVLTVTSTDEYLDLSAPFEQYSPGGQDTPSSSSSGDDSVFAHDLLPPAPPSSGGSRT
# Chain of UniProt Q9Y6M4 (whole entry, looked up): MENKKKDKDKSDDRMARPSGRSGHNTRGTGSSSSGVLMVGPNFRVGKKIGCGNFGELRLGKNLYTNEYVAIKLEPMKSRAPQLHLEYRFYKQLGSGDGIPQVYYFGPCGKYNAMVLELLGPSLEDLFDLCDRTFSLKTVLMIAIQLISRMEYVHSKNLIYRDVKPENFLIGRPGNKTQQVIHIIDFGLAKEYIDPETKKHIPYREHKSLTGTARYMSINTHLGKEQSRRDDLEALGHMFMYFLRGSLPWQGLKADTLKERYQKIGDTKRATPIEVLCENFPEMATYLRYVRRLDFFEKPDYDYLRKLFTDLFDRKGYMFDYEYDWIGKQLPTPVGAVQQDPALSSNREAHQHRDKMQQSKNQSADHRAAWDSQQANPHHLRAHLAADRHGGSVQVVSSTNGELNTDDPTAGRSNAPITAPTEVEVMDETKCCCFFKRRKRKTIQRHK
# Chain of UniProt Q8IYT8 (whole entry, looked up): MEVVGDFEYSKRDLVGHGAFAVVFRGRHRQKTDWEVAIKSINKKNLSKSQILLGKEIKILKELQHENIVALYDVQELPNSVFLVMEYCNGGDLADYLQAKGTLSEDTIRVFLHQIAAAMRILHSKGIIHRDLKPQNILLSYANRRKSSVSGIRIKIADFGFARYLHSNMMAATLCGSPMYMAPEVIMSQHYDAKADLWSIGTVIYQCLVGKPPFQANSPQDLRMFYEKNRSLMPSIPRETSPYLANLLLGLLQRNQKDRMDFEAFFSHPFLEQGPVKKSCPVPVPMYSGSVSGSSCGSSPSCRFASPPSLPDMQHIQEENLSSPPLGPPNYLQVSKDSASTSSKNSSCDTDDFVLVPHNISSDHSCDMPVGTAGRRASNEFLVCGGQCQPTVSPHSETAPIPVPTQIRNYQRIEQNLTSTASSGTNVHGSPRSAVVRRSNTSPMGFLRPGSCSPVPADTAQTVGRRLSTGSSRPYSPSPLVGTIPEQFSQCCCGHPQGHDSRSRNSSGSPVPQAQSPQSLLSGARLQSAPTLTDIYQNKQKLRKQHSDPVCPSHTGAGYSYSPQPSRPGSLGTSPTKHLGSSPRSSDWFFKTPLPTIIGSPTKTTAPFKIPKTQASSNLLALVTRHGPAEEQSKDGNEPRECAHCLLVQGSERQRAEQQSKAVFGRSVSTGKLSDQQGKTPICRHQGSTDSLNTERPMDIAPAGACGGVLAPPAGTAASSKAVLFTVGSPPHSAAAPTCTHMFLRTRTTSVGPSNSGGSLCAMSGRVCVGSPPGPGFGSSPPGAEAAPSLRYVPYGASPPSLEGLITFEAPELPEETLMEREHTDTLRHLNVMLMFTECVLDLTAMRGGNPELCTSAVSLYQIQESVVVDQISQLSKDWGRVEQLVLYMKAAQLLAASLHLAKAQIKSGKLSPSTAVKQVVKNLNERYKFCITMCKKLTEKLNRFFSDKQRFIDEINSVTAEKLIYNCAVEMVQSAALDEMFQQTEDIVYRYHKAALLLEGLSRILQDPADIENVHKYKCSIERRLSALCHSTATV
# Chain of UniProt Q6PHR2 (whole entry, looked up): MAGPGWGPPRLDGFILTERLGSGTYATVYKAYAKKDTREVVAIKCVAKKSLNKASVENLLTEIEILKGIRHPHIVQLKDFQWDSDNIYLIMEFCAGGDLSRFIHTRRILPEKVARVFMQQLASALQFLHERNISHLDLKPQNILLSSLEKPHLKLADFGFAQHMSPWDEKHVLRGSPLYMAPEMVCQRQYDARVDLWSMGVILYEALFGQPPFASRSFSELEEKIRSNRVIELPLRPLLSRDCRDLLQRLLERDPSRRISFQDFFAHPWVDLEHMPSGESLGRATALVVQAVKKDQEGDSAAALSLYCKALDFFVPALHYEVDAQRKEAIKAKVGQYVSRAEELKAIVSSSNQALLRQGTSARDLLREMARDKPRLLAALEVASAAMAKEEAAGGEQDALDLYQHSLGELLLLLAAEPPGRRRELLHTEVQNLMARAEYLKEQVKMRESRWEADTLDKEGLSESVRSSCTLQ
# Chain of UniProt P10721 (whole entry, looked up): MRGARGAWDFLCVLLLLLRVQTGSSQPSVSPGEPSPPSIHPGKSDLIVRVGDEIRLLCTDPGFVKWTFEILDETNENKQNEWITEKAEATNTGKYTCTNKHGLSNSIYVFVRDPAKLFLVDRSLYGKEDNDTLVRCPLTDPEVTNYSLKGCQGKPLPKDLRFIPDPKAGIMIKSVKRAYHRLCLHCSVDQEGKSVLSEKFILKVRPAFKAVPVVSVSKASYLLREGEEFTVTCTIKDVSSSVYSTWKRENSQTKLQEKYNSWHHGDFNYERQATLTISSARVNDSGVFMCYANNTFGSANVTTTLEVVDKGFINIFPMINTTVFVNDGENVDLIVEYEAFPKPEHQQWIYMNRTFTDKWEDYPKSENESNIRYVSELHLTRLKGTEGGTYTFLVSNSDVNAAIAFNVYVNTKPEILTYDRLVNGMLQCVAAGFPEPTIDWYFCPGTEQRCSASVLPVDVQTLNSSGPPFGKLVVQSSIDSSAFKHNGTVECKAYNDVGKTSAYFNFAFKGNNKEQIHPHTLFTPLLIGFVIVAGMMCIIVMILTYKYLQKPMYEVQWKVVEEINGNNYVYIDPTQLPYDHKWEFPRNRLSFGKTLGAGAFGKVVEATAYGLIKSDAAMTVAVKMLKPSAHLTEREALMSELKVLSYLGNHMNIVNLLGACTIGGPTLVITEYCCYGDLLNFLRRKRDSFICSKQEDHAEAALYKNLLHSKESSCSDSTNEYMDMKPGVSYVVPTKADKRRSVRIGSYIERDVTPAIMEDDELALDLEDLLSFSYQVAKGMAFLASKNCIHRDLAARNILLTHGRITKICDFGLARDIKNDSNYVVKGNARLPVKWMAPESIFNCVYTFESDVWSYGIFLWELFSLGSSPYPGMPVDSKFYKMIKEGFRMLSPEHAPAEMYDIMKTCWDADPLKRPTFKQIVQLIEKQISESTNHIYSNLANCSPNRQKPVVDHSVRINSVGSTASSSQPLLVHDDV
# Chain of UniProt P28482 (whole entry, looked up): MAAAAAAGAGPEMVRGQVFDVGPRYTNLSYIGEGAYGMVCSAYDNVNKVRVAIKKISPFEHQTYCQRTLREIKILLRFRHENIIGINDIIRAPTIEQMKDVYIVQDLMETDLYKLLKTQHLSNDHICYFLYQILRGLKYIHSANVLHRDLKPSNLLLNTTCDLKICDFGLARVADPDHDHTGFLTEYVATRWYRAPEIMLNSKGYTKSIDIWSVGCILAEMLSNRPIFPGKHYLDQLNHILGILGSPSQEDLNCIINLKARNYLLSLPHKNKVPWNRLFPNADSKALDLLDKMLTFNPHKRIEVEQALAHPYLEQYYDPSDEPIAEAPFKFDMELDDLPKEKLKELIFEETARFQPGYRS
# Chain of UniProt Q13131 (whole entry, looked up): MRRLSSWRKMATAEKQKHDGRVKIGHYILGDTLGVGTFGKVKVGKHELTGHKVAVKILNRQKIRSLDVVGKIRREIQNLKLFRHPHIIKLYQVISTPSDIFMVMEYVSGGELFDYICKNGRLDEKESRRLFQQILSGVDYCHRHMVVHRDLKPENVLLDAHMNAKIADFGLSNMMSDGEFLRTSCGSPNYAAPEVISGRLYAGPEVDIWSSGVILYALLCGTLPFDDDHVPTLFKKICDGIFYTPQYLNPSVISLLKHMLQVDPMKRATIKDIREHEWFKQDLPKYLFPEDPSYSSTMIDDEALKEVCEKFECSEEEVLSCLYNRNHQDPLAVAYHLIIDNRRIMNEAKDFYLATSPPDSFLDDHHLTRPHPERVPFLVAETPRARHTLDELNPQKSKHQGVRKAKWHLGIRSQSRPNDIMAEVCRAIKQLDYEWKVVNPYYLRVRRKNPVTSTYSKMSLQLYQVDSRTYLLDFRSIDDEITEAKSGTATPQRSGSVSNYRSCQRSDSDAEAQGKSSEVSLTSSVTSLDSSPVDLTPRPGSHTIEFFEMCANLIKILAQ
# Chain of UniProt Q8IU85 (whole entry, looked up): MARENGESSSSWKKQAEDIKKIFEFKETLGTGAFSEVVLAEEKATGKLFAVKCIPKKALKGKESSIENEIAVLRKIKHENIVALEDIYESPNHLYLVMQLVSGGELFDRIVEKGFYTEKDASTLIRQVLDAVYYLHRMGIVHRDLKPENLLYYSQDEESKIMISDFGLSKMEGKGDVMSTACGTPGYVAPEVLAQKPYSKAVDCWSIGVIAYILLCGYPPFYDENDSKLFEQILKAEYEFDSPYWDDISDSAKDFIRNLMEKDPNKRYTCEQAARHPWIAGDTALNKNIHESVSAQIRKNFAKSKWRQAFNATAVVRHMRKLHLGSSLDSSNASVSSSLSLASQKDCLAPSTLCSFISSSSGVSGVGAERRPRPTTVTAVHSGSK

# Study 1 — Compound: Cn1nc2c3c(cccc31)C(=O)c1ccccc1-2; effect on: enzyme activity; action: inhibitor; tested at: 0.5 µM; reference: control
target,remaining activity [%]
"GSK3B (Homo sapiens, UniProt P49841)",94
"GRK7 (Homo sapiens, UniProt Q8WTQ7)",113
"CSNK1G3 (Homo sapiens, UniProt Q9Y6M4)",81.4
"TBK1 (Homo sapiens, UniProt Q9UHD2)",88.8
"MAPK3 (Homo sapiens, UniProt P27361)",98.9
"MAPKAPK2 (Homo sapiens, UniProt P49137)",102
"ULK2 (Homo sapiens, UniProt Q8IYT8)",109
"LCK (Homo sapiens, UniProt P06239)",99.2
"FGFR3 (Homo sapiens, UniProt P22607)",95.9
"EPHA3 (Homo sapiens, UniProt P29320)",93.5
"MAP3K14 (Homo sapiens, UniProt Q99558)",107
"ACVR1B (Homo sapiens, UniProt P36896)",102
"NEK1 (Homo sapiens, UniProt Q96PY6)",78.3
"ULK3 (Homo sapiens, UniProt Q6PHR2)",94.9

# Study 2 — species: human; medium: microsomes or S9; tested at: 2 µM; time: 0.5 h
SMILES,remaining compound
COC(=O)c1ccc2c(c1)OC(CC(=O)Nc1ccc(N)cc1)C(=O)N2 (stereo not shown),68.5%
COc1cc(=O)[nH]cc1C(=O)NCCc1cn(C)c2cc(C)ccc12,34.8%
C[C@H](Nc1nc(N)nc2[nH]cnc(=O)c12)c1cc2cccc(Cl)c2c(=O)n1-c1ccccc1,31.2%
CCn1[nH]/c(=N\S(=O)(=O)c2ccc(C)cc2)c2cc3cccc(C)c3nc21,1.35%
COc1ccc([C@@H](C)C(=O)c2ccc(O)cc2O)cc1,64.9%
CCOC(=O)C1=C(n2cc(-c3ccccc3)nn2)Cc2ccccc2O1,82.9%
Cc1ccc(S(=O)(=O)n2c(N)nc3ccccc32)cc1,57.6%
CCOc1cc(C(=O)OCc2cc(=O)n3oc(C)cc3n2)cc(OCC)c1OCC,0.344%
O=C(COc1ccc2c3ccccc3n(C(=O)c3cccnc3)c2c1)N1CCCCC1,0.388%
COc1cc(OC)c(-c2[nH]nc3c2C(=O)CCC3)cc1OC,52.1%
COc1ccccc1/C=C/c1nc(S(=O)(=O)c2ccccc2)c(N2CCN(C)CC2)o1,12.8%

# Study 3 — technique: competition with immobilised ligand; tested at: 1 µM
# SMILES: O=C(Nc1ccc(Oc2ccc(F)cc2)cc1)N1CCc2ncccc2[C@H]1c1ccc(F)cc1
target,effect on,remaining binding
"NEK2 (Homo sapiens, UniProt P51955)",cell-free assay,93%
"Ribosomal protein S6 kinase alpha-6, N-terminal kinase domain (RPS6KA6, Homo sapiens, UniProt Q9UK32)",cell-free assay,91%
"Mast/stem cell growth factor receptor Kit, autoinhibited (KIT, Homo sapiens, UniProt P10721)",cell-free assay,91%
"MAPK1 (Homo sapiens, UniProt P28482)",cell-free assay,100%
"FGR (Homo sapiens, UniProt P09769)",cell-free assay,100%
"Tyrosine-protein kinase ABL1, non-phosphorylated (ABL1, Homo sapiens, UniProt P00519, F317I)",binding,94%
"Tyrosine-protein kinase ABL1, phosphorylated (ABL1, Homo sapiens, UniProt P00519, H396P)",cell-free assay,92%
"PIK3C2G (Homo sapiens, UniProt O75747)",cell-free assay,100%
"Insulin receptor (INSR, Homo sapiens, UniProt P06213)",cell-free assay,86%
"PRKCI (Homo sapiens, UniProt P41743)",cell-free assay,100%
"RIOK1 (Homo sapiens, UniProt Q9BRS2)",cell-free assay,100%
"MUSK (Homo sapiens, UniProt O15146)",cell-free assay,92%
"SLK (Homo sapiens, UniProt Q9H2G2)",cell-free assay,100%
"CSNK1G3 (Homo sapiens, UniProt Q9Y6M4)",cell-free assay,80%
"PRKAA1 (Homo sapiens, UniProt Q13131)",cell-free assay,96%
"CAMK1D (Homo sapiens, UniProt Q8IU85)",cell-free assay,100%
"FGFR3 (Homo sapiens, UniProt P22607)",cell-free assay,83%

# Single results of other studies
Compound,cell line,tested at,time,quantity,value
C[C@@H]1C[C@H]2[C@@H]3CCC4=CC(=O)C=C[C@]4(C)[C@@]3(F)[C@@H](O)C[C@]2(C)[C@@]1(O)C(=O)CO,A-375,100 µM,60 h,viability,93.2%

# Repeated from above (study 2):
SMILES,remaining compound
CCOc1cc(C(=O)OCc2cc(=O)n3oc(C)cc3n2)cc(OCC)c1OCC,0.344%
COC(=O)c1ccc2c(c1)OC(CC(=O)Nc1ccc(N)cc1)C(=O)N2 (stereo not shown),68.5%
COc1cc(=O)[nH]cc1C(=O)NCCc1cn(C)c2cc(C)ccc12,34.8%
Cc1ccc(S(=O)(=O)n2c(N)nc3ccccc32)cc1,57.6%
CCn1[nH]/c(=N\S(=O)(=O)c2ccc(C)cc2)c2cc3cccc(C)c3nc21,1.35%
